Experimental data of several laboratories.
Every numbered part comes from another study and shows a few of its results, in no order. Changes are numbered by the printed parent chain.

Set 1
Target: CCNF, cyclin fold, Cln2 fusion (human)
Technique: yeast growth competition, sequencing
Sample: yeast
Notes: strong parent motif
Reference: not given
Direction: higher = stronger binding
Parent: SAMHD1 docking peptide (human); ASKSRVQLFKDDP
Change	normalised enrichment score
D12K	0.98
K10G	0.533
D12Q	0.705
Q7E	0.171
Q7Y	0.563
S4P	2.36

Set 2
Target: Transcription factor SOX-2, HMG box (Sox2, Mus musculus, UniProt P48432, residues 41-119)
Chain of UniProt P48432 (41-119, looked up): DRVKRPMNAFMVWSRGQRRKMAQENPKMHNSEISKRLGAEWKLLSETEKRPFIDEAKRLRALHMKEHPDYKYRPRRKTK
Technique: Spec-seq
Molecule type: double-stranded DNA, one strand shown
Sample: in vitro
Concentration: not given
Notes: whole probe, mean of replicates
Reference: not given
Direction: lower = stronger binding
Constant ends, left off below: GAGTCGTCTCGTCAGCAC … CCGTAGAGCACTCAGGTC
Sequence	relative binding energy [ln ratio]
TTGAGTT	0.682
TTAGGTT	0.629
CATATCT	0.419
CGTCGTT	1.19
AGTAGTT	-0.0838
GGAGGTT	1.39
CATAAGC	-0.0111
AGCGGTT	0.85

Set 3
Target: ABI1, truncated, D143A, DHFR fusion (Arabidopsis thaliana)
Technique: DHFR PCA, deep sequencing
Sample: yeast
Notes: methotrexate growth selection, single substitutions
Added: (+)-ABA 710 µM
Reference: wild-type fitted maximum
Direction: higher = stronger binding
Parent: PYL1, truncated, DHFR fusion (Arabidopsis thaliana); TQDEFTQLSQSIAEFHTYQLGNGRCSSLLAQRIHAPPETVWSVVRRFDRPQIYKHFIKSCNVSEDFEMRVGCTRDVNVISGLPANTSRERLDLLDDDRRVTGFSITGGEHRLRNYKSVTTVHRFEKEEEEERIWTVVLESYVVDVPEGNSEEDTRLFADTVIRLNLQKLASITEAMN
Change	relative binding score [%]
E125V	113
I33M	96.6
R155W	57.9
A175H	97.7
F157T	27.6
E109M	94.7
Y53F	92.2

Other studies, line by line
Substance	target	assay	test system	setting	scale	measurement	value
PhoQ, residues 284 288 289 292 302 303 SSCCRF	PhoP, residues 12 14 15 18 19 LYFRQ (Escherichia coli, UniProt P23836)	Sort-seq, item: YFP reporter	E. coli	PhoQ-PhoP variant library, added: 10 µM Mg2+	reference: high Mg2+ state, higher = stronger signaling	fold induction	9.1

Some of these lines once more (set 2):
Sequence	relative binding energy [ln ratio]
CATATCT	0.419
TTAGGTT	0.629
CATAAGC	-0.0111
